Published values collected from several papers.
Each line is one published result; not all experiments were run side by side.
Organism: Klebsiella pneumoniae

| Structure (SMILES) | assay | test system | setting | MIC |
| --- | --- | --- | --- | --- |
| CC(C)C[C@@H]1NC(=O)[C@@H](CC(C)C)NC(=O)[C@H](CCN)NC(=O)[C@@H](NC(=O)[C@H](CCN)NC(=O)[C@@H](NC(=O)CN=[N+]=[N-])[C@@H](C)O)CCNC(=O)[C@H]([C@@H](C)O)NC(=O)[C@H](CCN)NC(=O)[C@H](CCN)NC1=O | broth microdilution | ATCC 13883, cation-adjusted Mueller-Hinton broth | 18 to 20 h, 37 °C, 0.002% polysorbate 80 | 32 µg/mL |
| CC1(C)C(NC(=O)C(=NOCC(=O)N2CC3CCCC3C2C(=O)O)c2csc(N)n2)C(=O)N1OS(=O)(=O)O (stereo not drawn) | agar dilution | ATCC 700603, ESBL-producing |  | > 64 µg/mL |
| CC(C)C[C@@H]1NC(=O)[C@@H](CC(C)C)NC(=O)[C@H](CCN)NC(=O)[C@@H](NC(=O)[C@H](CCN)NC(=O)[C@@H](NC(=O)CCCCN=[N+]=[N-])[C@@H](C)O)CCNC(=O)[C@H]([C@@H](C)O)NC(=O)[C@H](CCN)NC(=O)[C@H](CCN)NC1=O | broth microdilution | ATCC 13883, cation-adjusted Mueller-Hinton broth | 18 to 20 h, 37 °C, 0.002% polysorbate 80 | 4 µg/mL |
| c1ccc(CN2CCOCCOCCN(CCCCCCCCCCCCCCN3CCOCCOCCN(CCCCCCCCCCCCCCN4CCOCCOCCN(Cc5ccccc5)CCOCCOCC4)CCOCCOCC3)CCOCCOCC2)cc1 |  | ATCC BAA-2146 |  | 10 µM |
| CC[C@H]1OC(=O)[C@H](C)[C@@H](OC(=O)Cc2cccc([N+](=O)[O-])c2)[C@H](C)[C@@H](O[C@@H]2O[C@H](C)C[C@H](N(C)C)[C@H]2O)[C@](C)(OC)C[C@@H](C)C(=O)[C@H](C)[C@@H](O)[C@]1(C)O | microbial growth | ATCC700603 |  | > 32 µg/mL |
| COc1c(NC(=O)c2ccc(NC(=O)c3ccc(NC(=O)[C@H](CC#N)NC(=O)c4ccc(NC(=O)/C(C)=C/c5ccc(O)cc5)cc4)cc3)c(OC)c2O)ccc(C(=O)O)c1O | microbial growth, broth dilution |  |  | 128 µg/mL |
| C#CCO/N=C(\C(=O)N[C@@H]1C(=O)N(S(=O)(=O)O)[C@H]1C)c1csc(N)n1 | agar dilution | 16-14 ESBL |  | 32 µg/mL |
| CCCCCCC#Cc1cncc(-c2nnc(SCc3ccc(Cl)cc3)n2C)c1 | microbial growth, broth dilution | DSM30104 |  | > 64 µg/mL |
| CC[C@H]1OC(=O)[C@H](C)[C@@H](O[C@H]2C[C@@](C)(OC)[C@@H](O)[C@H](C)O2)[C@H](C)[C@@H](O[C@@H]2O[C@H](C)C[C@H](N(C)C)[C@H]2O)[C@](C)(OC)C[C@@H](C)C(=O)[C@H](C)[C@@H](O)[C@]1(C)O | microbial growth | ATCC700603 |  | > 32 µg/mL |
| CC1(C)[C@H](NC(=O)/C(=N\OCc2c(Cl)cccc2Cl)c2nsc(N)n2)C(=O)N1OS(=O)(=O)O | agar dilution | ATCC 700603, ESBL-producing |  | 32 µg/mL |
| CCCCCCCCn1cc[n+](CCCCCCCCOc2cc(OCCCCCCCC[n+]3ccn(CCCCCCCC)c3)cc(OCCCCCCCC[n+]3ccn(CCCCCCCC)c3)c2)c1.[Br-].[Br-].[Br-] |  | ATCC 4352 |  | 4 µM |
| C#CCNC(=O)C(C)(C)O/N=C(\C(=O)N[C@@H]1C(=O)N(S(=O)(=O)O)[C@H]1C)c1csc(N)n1 | agar dilution | ATCC 700603 ESBL |  | 128 µg/mL |
| CC[C@H](C)[C@H](NC(=O)[C@@H](CCCNC(=N)N)NC(=O)[C@H](CCCNC(=N)N)NC(=O)[C@@H]1CCCN1C(=O)[C@@H]1CCCN1C(=O)[C@H](CCCNC(=N)N)NC(=O)[C@@H]1CCCN1C(=O)[C@H](CCCNC(=N)N)NC(=O)[C@@H]1CCCN1C(=O)[C@H](CCCNC(=N)N)NC(=O)[C@H](Cc1ccc(O)cc1)NC(=O)[C@@H]1CCCN1C(=O)[C@@H]1CCCN1C(=O)[C@H](CCCCN)NC(=O)[C@H](CC(=O)O)NC(=O)[C@@H](N)C(C)C)C(=O)N[C@@H](Cc1ccc(O)cc1)C(=O)N[C@@H](CC(N)=O)C(=O)N[C@H](CCCNC(=N)N)C(N)=O | broth microdilution | DSM 681 | 18 h, 37 °C, 25% MHB2 | 4 µg/mL |
| CC(C)(O/N=C(\C(=O)N[C@@H]1C(=O)N(OS(=O)(=O)O)C1(C)C)c1nsc(N)n1)C(=O)O | agar dilution | 16-14, ESBL-producing |  | > 64 µg/mL |
| CCCCCCCCn1cc[n+](CCCCOc2cc(OCCCC[n+]3ccn(CCCCCCCC)c3)cc(OCCCC[n+]3ccn(CCCCCCCC)c3)c2)c1.[Br-].[Br-].[Br-] |  | ATCC 4352 |  | 0.5 µM |
| CN[C@H](CC(C)C)C(=O)N[C@H]1C(=O)N[C@@H](CC(N)=O)C(=O)N[C@H]2C(=O)N[C@H]3C(=O)N[C@H](C(=O)N[C@H](C(=O)O)c4cc(O)cc(O)c4-c4cc3ccc4O)[C@H](O)c3ccc(c(Cl)c3)Oc3cc2cc(c3O[C@@H]2O[C@H](CO)[C@@H](O)[C@H](O)[C@H]2O[C@H]2C[C@](C)(NCc3ccc(OCc4cn(CC(=O)N[C@H](C(=O)N[C@@H](CCN)C(=O)N[C@H]5CCNC(=O)[C@H]([C@@H](C)O)NC(=O)[C@H](CCN)NC(=O)[C@H](CCN)NC(=O)[C@H](CC(C)C)NC(=O)[C@@H](CC(C)C)NC(=O)[C@H](CCN)NC5=O)[C@@H](C)O)nn4)c(OC)c3)[C@H](O)[C@H](C)O2)Oc2ccc(cc2Cl)[C@H]1O | broth microdilution | ATCC 27736, cation-adjusted Mueller-Hinton broth | 18 to 20 h, 37 °C, 0.002% polysorbate 80 | 8 µg/mL |
| C=CCO/N=C(\C(=O)N[C@@H]1C(=O)N(OS(=O)(=O)O)C1(C)C)c1nsc(N)n1 | agar dilution | 16-14, ESBL-producing |  | 2 µg/mL |
| CCCCCCCC[N+](C)(C)CCCCCCCCOc1cc(OCCCCCCCC[N+](C)(C)CCCCCCCC)cc(OCCCCCCCC[N+](C)(C)CCCCCCCC)c1.[Br-].[Br-].[Br-] |  | ATCC 4352 |  | 2 µM |
| CN[C@H](CC(C)C)C(=O)N[C@H]1C(=O)N[C@@H](CC(N)=O)C(=O)N[C@H]2C(=O)N[C@H]3C(=O)N[C@H](C(=O)N[C@H](C(=O)NCc4cn(CC(=O)N[C@H](C(=O)N[C@@H](CCN)C(=O)N[C@H]5CCNC(=O)[C@H]([C@@H](C)O)NC(=O)[C@H](CCN)NC(=O)[C@H](CCN)NC(=O)[C@H](CC(C)C)NC(=O)[C@@H](CC(C)C)NC(=O)[C@H](CCN)NC5=O)[C@@H](C)O)nn4)c4cc(O)cc(O)c4-c4cc3ccc4O)[C@H](O)c3ccc(c(Cl)c3)Oc3cc2cc(c3O[C@@H]2O[C@H](CO)[C@@H](O)[C@H](O)[C@H]2O[C@H]2C[C@](C)(N)[C@H](O)[C@H](C)O2)Oc2ccc(cc2Cl)[C@H]1O | broth microdilution | ATCC 27736, cation-adjusted Mueller-Hinton broth | 18 to 20 h, 37 °C, 0.002% polysorbate 80 | 32 µg/mL |
| CC[C@H](C)[C@@H]1NC(=O)[C@@H](CC(C)C)NC(=O)[C@H](CCN)NC(=O)[C@@H](NC(=O)[C@@H](CO)NC(=O)[C@@H](NC(=O)[C@H](CCN)NC(=O)c2ccc(-c3ccccc3)cc2)[C@@H](C)O)CCNC(=O)[C@H](CC(C)C)NC(=O)[C@H](CCN)NC(=O)[C@H](CCN)NC1=O | broth microdilution | ATCC 19606 |  | 0.5 to 1 µg/mL |
| CC1(C)[C@H](NC(=O)/C(=N\OCC(=O)N2CCC[C@@H]2C(=O)O)c2nsc(N)n2)C(=O)N1OS(=O)(=O)O | agar dilution | 16-14, ESBL-producing |  | 16 µg/mL |
| CCCCCCCC[N+](C)(C)CCCCOc1cc(OCCCC[N+](C)(C)CCCCCCCC)cc(OCCCC[N+](C)(C)CCCCCCCC)c1.[Br-].[Br-].[Br-] |  | ATCC 4352 |  | 4 µM |
| CC[C@H]1OC(=O)[C@H](C)[C@@H](OC(=O)Cc2ccc(C(F)(F)F)cc2)[C@H](C)[C@@H](O[C@@H]2O[C@H](C)C[C@H](N(C)C)[C@H]2O)[C@](C)(OC)C[C@@H](C)C(=O)[C@H](C)[C@@H](O)[C@]1(C)O | microbial growth | ATCC700603 |  | > 32 µg/mL |
| CCCCCCCCCCn1cc[n+](CCCCCCCCOc2cc(OCCCCCCCC[n+]3ccn(CCCCCCCCCC)c3)cc(OCCCCCCCC[n+]3ccn(CCCCCCCCCC)c3)c2)c1.[Br-].[Br-].[Br-] |  | ATCC 4352 |  | 125 µM |
| CC1(C)[C@H](NC(=O)/C(=N\OC2(C(=O)O)CC2)c2nsc(N)n2)C(=O)N1OS(=O)(=O)O | agar dilution | ATCC 700603, ESBL-producing |  | 64 µg/mL |
| C#CCOc1ccc(CN[C@@]2(C)C[C@H](O[C@H]3[C@H](Oc4c5cc6cc4Oc4ccc(cc4Cl)[C@@H](O)[C@@H](NC(=O)[C@@H](CC(C)C)NC)C(=O)N[C@@H](CC(N)=O)C(=O)N[C@H]6C(=O)N[C@H]4C(=O)N[C@H](C(=O)N[C@H](C(=O)N[C@@H](CCCNC(=N)N)C(N)=O)c6cc(O)cc(O)c6-c6cc4ccc6O)[C@H](O)c4ccc(c(Cl)c4)O5)O[C@H](CO)[C@@H](O)[C@@H]3O)O[C@@H](C)[C@H]2O)cc1OC | broth microdilution | ATCC 27736, cation-adjusted Mueller-Hinton broth | 18 to 20 h, 37 °C, 0.002% polysorbate 80 | 128 µg/mL |
| CCCCCCCCCC[N+](C)(C)CCCCOc1cc(OCCCC[N+](C)(C)CCCCCCCCCC)cc(OCCCC[N+](C)(C)CCCCCCCCCC)c1.[Br-].[Br-].[Br-] |  | ATCC 4352 |  | 1 µM |
